# Measurements of several laboratories.
# Compare with care: the assays were run in different laboratories. Values joined by “and” are separate records of one study, mostly repeats; a detail may differ. Numbers after ± are the reported error.
SMILES,target or system,test,test system,conditions,scale,endpoint,value
CC1(C)S[C@@H]2[C@H](NC(=O)[C@H](N)c3ccccc3)C(=O)N2[C@H]1C(=O)O,Salmonella enterica,,,"20 h, pH 7.2",,MIC,2 µg/mL
COc1cc(CCC[P+](c2ccccc2)(c2ccccc2)c2ccccc2)c(OC)c2c1OCO2.[I-],NCI/ADR-RES,SRB,,,,Log10GI50,-4.11 log M
C[C@]12CCC(=O)C=C1CC[C@@H]1[C@@H]2[C@@H](O)C[C@@]2(C)[C@H]1CC[C@]2(O)C(=O)CO,human coronavirus OC43,virus-induced cell killing,MRC-5,screen,,maximum inhibition,6.8%
O=C(O)/C=C/C(=O)O.Oc1cccc2[nH]cc(CCNC3CCCCC3)c12,,,C57BL/6J mice,"subcutaneous, 30 mg/kg",baseline: pre-session baseline,body temperature change,-2.3 ± 0.7 °C
CS(=O)(=O)Nc1ncn(-c2cc(F)c(COc3ccc(OS(=O)(=O)F)cc3)c(F)c2)n1,Mycobacterium tuberculosis,,"NIH_G9R, drug-resistant, lineage 2",,,MIC,0.03 µM
OC(c1ccccc1)(c1ccccc1)C1CCNCC1,THP-1,pyroptotic LDH release,,"2 µM, 40 min, with: LPS then nigericin",,inhibition,39.8%
C=CCNCCc1c[nH]c2cccc(O)c12.C=CCNCCc1c[nH]c2cccc(O)c12.O=C(O)/C=C/C(=O)O,,,C57BL/6J mice,"subcutaneous, 3 mg/kg",baseline: pre-session baseline,body temperature change,-0.3 ± 0.1 °C
COc1ccc(CCC2CCCC(CCc3ccc(OC)cc3)N2C[C@@H](O)CO)cc1.Cl (stereo in doubt),,methamphetamine-evoked dopamine release,rat striatal slices,"10 µM, with: methamphetamine 5 µM",,time of significant inhibition,50 to 55 min
Nc1cccc2c1CN(C1CCC(=O)NC1=O)C2=O (stereo not drawn),human coronavirus OC43,virus-induced cell killing,MRC-5,maximum over 10 doses,,maximum inhibition,0%
CCCNCCc1c[nH]c2cccc(O)c12.CCCNCCc1c[nH]c2cccc(O)c12.O=C(O)/C=C/C(=O)O,,,C57BL/6J mice,"subcutaneous, 10 mg/kg",baseline: pre-session baseline,body temperature change,-0.9 ± 0.3 °C
CC(C)C[C@H](NC(=O)[C@H](Cc1ccccc1)NC(=O)c1cnccn1)B(O)O,human coronavirus OC43,virus-induced cell killing,MRC-5,maximum over 10 doses,,maximum inhibition,0%
N.N.[Cl][Pt][Cl],Cal27CisR,flow cytometry sub-G1,,"16.5 µM, 24 h",,apoptotic cells,< 5%
N[C@@H](C[18F])C(=O)O,U-87 MG tumour model,,host not given,5 min,,maximum cellular uptake,11.5 ± 1.1 %ID/100 µg protein
Cc1cc(/C=C/c2ccc3cc(N(C)C)ccc3[n+]2C)c(C)n1-c1ccccc1,human coronavirus OC43,virus-induced cell killing,MRC-5,screen,,maximum inhibition,42.5%
CC[C@H](C)[C@@H]1NC(=O)[C@@H]2CCCN2C(=O)[C@H](CC(C)C)NC(=O)[C@H](CC(C)C)NC(=O)CNC(=O)[C@@H](NC(=O)[C@@H](NC(=O)[C@H](CC(=O)O)NC(=O)CNC(=O)[C@@H](NC(=O)[C@H](C)NC(=O)CNC(=O)[C@H](CCCCN)NC(=O)[C@H](CC(C)C)NC(=O)[C@H](CC(C)C)NC(=O)[C@H](CCCCN)NC(=O)CNC(=O)[C@@H](NC(=O)[C@@H](N)CC(C)C)C(C)C)C(C)C)C(C)C)CSSC[C@@H](C(=O)O)NC1=O,,"RNA-seq, measured: Ncf2","mouse, traumatic brain injury model, frontal cortex and hippocampus",dose not given,baseline: TBI alone,log2 fold change,-2.35
C#Cc1cccc(Nc2ncnc3cc(OCCOC)c(OCCOC)cc23)c1,human coronavirus OC43,virus-induced cell killing,MRC-5,maximum over 10 doses,,maximum inhibition,0%
C[C@]12CC[C@H]3[C@@H](CC=C4CC(O)CC[C@@]43CO)[C@@H]1CCC2O (stereo partly drawn),,,GAN diet MASH rats,"ip, 20 mg/kg, two weeks",baseline: GAN vehicle,plasma cholesterol level,decreased
OC(Cn1cncn1)(Cn1cncn1)c1ccc(F)cc1F,Saccharomyces cerevisiae,cell growth,"Pdr5 deleted, empty vector",2^-3.322 µg/mL,,OD600,1.02 and 1.01
CCNCCc1c[nH]c2cccc(O)c12.CCNCCc1c[nH]c2cccc(O)c12.O=C(O)CCC(=O)O,,,C57BL/6J mice,"subcutaneous, 10 mg/kg",baseline: pre-session,body temperature change,-1.9 ± 0.4 °C
COc1cc(CCNCc2ccccc2OC)c(OC)cc1Br,"5-HT2A L123V mutant, human","Gq dissociation, BRET",,,baseline: wild-type 5-HT2A,fold loss in potency,4.4 fold
CCCCCc1cc(O)c2c(c1)OC(C)(C)[C@@H]1CCC(C)=C[C@@H]21,capacitated human sperm,CASA,,"10 µM, 1 h",,Hyperactive motility,decreased
Nc1ncnc2c1ncn2[C@@H]1O[C@@H]2COP(=O)(O)O[C@H]3[C@@H](O)[C@H](n4cnc5c(=O)[nH]cnc54)O[C@@H]3COP(=O)(O)O[C@H]2[C@H]1O,HFF-1,"RNA sequencing, measured: Reactome cytokine signaling",,upregulated pathways,baseline: mock,fold enrichment,4.98
Fc1cc(-c2cccc3ncc(-c4cnn(C5CCNCC5)c4)nc23)cc(F)c1CN1CCOCC1,human coronavirus OC43,virus-induced cell killing,MRC-5,screen,,maximum inhibition,16.5%
CC(C)(C)NCCc1c[nH]c2cccc(O)c12.CC(C)(C)NCCc1c[nH]c2cccc(O)c12.O=C(O)/C=C/C(=O)O,,,C57BL/6J mice,"subcutaneous, 0.03 mg/kg",baseline: pre-session baseline,body temperature change,0 ± 0.1 °C
NC(=O)CN1CC(O)CC1=O (stereo not drawn),Nedd8-cullin1 interaction,"neddylation, AlphaScreen",,100 µM,,inhibition,-19%
COc1c(CCC[P+](c2ccccc2)(c2ccccc2)c2ccccc2)cc2c(c1OC)OCO2.[I-],COLO 205,SRB,,,,GI50,-5.92 log M
CN1CCN(S(=O)(=O)c2cc([N+](=O)[O-])ccc2N(CCOS(C)(=O)=O)CCOS(C)(=O)=O)CC1,,,"NSG mice, sample BH PDX","intraperitoneal, 25 mg/kg weekly x3",,event-free survival,59.7 days
COC(=O)Nc1nc2ccc(C(=O)c3cccs3)cc2[nH]1,human coronavirus OC43,virus-induced cell killing,MRC-5,screen,,maximum inhibition,2.43%
CCCCNCCc1c[nH]c2cccc(O)c12.O=C(O)/C=C/C(=O)O,,,C57BL/6J mice,"subcutaneous, 0.03 mg/kg",baseline: pre-session baseline,body temperature change,-0.3 ± 0.1 °C
CCCCC1(CCCC)CN(c2ccccc2)c2cc(SC)c(OCC(=O)N[C@@H](C(=O)NCC(=O)O)c3ccccc3)cc2S(=O)(=O)C1,,measured: LDL cholesterol,"human, serum","15 mg once daily, day 7",,serum LDL-C,78.2 mg/dL
Cc1ccc(-c2cc(C(F)(F)F)nn2-c2ccc(S(N)(=O)=O)cc2)cc1,human coronavirus OC43,virus-induced cell killing,MRC-5,maximum over 10 doses,,maximum inhibition,0%
CC(C)NCCc1c[nH]c2cccc(O)c12.O=C(O)/C=C/C(=O)O,,,C57BL/6J mice,"subcutaneous, 1 mg/kg",baseline: pre-session baseline,body temperature change,-0.3 ± 0.3 °C
CC[C@H](C)[C@H](NC(=O)[C@H](C)NC(=O)[C@H](CCCCN)NC(=O)[C@H](CC(C)C)NC(=O)[C@H](C)NC(=O)[C@@H](NC(=O)[C@H](Cc1c[nH]cn1)NC(=O)[C@H](CC(C)C)NC(=O)[C@@H](NC(=O)[C@@H](NC(=O)[C@H](CCCCN)NC(=O)[C@H](C)NC(=O)[C@H](C)NC(=O)[C@H](CO)NC(=O)[C@H](CCCCN)NC(=O)[C@H](Cc1ccccc1)NC(=O)[C@@H](NC(=O)[C@H](CCCCN)NC(=O)[C@H](CC(C)C)NC(=O)[C@H](Cc1ccccc1)NC(=O)[C@H](CO)NC(=O)[C@H](CCCCN)NC(=O)[C@H](Cc1c[nH]c2ccccc12)NC(=O)[C@H](CCCCN)NC(C)=O)[C@@H](C)O)[C@@H](C)O)C(C)C)[C@@H](C)O)C(=O)N[C@@H](CO)C(=O)N[C@@H](CO)C(N)=O,Klebsiella pneumoniae,,ATCC 1706,,,MIC50,2 µg/mL
